Published values gathered from unrelated publications.
Protocols differ between the studies behind these lines.
Cell line: BXPC-3
Effect on: cell growth or viability

SMILES = CC(=O)Oc1ccc(/C=C/C(=O)Nc2nc(=O)n([C@@H]3O[C@H](C)[C@@H](OC(C)=O)[C@H]3OC(C)=O)cc2F)cc1; test = MTT; setting = 72 h; endpoint = IC50; value = 14000 nM
SMILES = COC(=O)[C@@H](Cc1cn(Cc2ccc(C)cc2)nn1)NC(=O)OCC1c2ccccc2-c2ccccc21; test = MTS; setting = 72 h; endpoint = IC50; value = 2740 nM
SMILES = CC(=O)Oc1ccc(/C=C/C(=O)Nc2nc(=O)n([C@@H]3O[C@H](C)[C@@H](OC(C)=O)[C@H]3OC(C)=O)cc2F)c(OC(C)=O)c1; test = MTT; setting = 72 h; endpoint = IC50; value = 45100 nM
SMILES = CCCCCCCCCCCCCCOC(=O)Nc1ccn([C@@H]2O[C@H](CO)[C@@H](O)C2(F)F)c(=O)n1; test = MTT; setting = 48 h; endpoint = IC50; value = 530 nM
SMILES = N.N.O=C(CCCc1ccccc1)[O][Pt]([Cl])([Cl])[O]C(=O)CCCc1ccccc1; endpoint = IC50; value = 190 nM
SMILES = COC(=O)[C@@H](Cc1cn(Cc2ccccc2)nn1)NC(=O)OCC1c2ccccc2-c2ccccc21; test = MTS; setting = 72 h; endpoint = IC50; value = 1480 nM
SMILES = CCCC(CCC)C(=O)[O][Pt]([Cl])([Cl])[O]C(C)=O.N.N; endpoint = IC50; value = 3540 nM
SMILES = CCCCCCCCCCCCCCCCCC(=O)Nc1ccn(C2OC(CO)C(O)C2(F)F)c(=O)n1 (stereo not drawn); test = crystal violet; setting = 72 h; endpoint = EC50; value = 40 nM
SMILES = CCCC(CCC)C(=O)[O][Pt]1([OH])[O]C(=O)C(=O)[O]1.NC1CCCCC1N; endpoint = IC50; value = 19800 nM
SMILES = COc1ccc2c(c1)C(=C1Nc3ccccc3C1=NOCC(O)CO)C(=O)N2 (stereo not drawn); test = MTS; setting = 48 h; endpoint = IC50; value = 2200 nM
SMILES = CC(=O)Oc1cccc(/C=C/C(=O)Nc2nc(=O)n([C@@H]3O[C@H](C)[C@@H](OC(C)=O)[C@H]3OC(C)=O)cc2F)c1; test = MTT; setting = 72 h; endpoint = IC50; value = 20200 nM
SMILES = Cc1nn(-c2ccc(S(=O)(=O)N[C@H](CO)CC(C)C)cc2)c2nn3nnnc3nc12; test = MTT; setting = 72 h; endpoint = IC50; value = 210 nM

Some of these lines once more:
SMILES = CCCCCCCCCCCCCCOC(=O)Nc1ccn([C@@H]2O[C@H](CO)[C@@H](O)C2(F)F)c(=O)n1; test = MTT; setting = 48 h; endpoint = IC50; value = 530 nM
